Results gathered from unrelated publications.
Numbered parts are unrelated; each lists some results of a single study.
UniProt Q86UX6, sequence (whole entry, looked up): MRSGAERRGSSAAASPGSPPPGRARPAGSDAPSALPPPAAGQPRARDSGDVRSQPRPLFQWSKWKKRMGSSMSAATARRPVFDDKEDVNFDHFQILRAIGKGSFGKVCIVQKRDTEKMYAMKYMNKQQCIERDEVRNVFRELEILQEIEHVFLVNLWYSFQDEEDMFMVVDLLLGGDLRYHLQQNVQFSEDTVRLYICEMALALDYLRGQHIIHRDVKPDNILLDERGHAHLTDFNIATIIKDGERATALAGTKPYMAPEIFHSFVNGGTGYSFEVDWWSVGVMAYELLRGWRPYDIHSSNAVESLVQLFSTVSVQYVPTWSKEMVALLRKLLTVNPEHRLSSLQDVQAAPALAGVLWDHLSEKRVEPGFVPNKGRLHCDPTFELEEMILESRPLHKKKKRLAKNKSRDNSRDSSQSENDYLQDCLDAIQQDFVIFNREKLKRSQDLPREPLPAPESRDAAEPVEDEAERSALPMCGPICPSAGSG
UniProt O15530, sequence (whole entry, looked up): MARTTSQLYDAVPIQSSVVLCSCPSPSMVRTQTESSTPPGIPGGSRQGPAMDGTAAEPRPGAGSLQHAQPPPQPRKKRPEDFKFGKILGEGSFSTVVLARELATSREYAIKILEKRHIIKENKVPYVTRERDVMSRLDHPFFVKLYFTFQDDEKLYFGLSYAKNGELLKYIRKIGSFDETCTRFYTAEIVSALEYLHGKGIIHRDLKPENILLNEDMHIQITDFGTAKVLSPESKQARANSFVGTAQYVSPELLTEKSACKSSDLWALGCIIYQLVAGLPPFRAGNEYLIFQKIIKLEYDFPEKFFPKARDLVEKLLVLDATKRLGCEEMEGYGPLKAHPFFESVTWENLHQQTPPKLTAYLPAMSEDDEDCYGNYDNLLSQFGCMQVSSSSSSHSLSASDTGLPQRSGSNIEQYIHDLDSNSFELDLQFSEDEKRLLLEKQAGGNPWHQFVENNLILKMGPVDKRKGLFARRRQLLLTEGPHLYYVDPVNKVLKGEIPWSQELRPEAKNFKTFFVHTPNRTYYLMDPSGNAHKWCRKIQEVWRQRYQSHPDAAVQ
UniProt Q9UKE5, sequence (whole entry, looked up): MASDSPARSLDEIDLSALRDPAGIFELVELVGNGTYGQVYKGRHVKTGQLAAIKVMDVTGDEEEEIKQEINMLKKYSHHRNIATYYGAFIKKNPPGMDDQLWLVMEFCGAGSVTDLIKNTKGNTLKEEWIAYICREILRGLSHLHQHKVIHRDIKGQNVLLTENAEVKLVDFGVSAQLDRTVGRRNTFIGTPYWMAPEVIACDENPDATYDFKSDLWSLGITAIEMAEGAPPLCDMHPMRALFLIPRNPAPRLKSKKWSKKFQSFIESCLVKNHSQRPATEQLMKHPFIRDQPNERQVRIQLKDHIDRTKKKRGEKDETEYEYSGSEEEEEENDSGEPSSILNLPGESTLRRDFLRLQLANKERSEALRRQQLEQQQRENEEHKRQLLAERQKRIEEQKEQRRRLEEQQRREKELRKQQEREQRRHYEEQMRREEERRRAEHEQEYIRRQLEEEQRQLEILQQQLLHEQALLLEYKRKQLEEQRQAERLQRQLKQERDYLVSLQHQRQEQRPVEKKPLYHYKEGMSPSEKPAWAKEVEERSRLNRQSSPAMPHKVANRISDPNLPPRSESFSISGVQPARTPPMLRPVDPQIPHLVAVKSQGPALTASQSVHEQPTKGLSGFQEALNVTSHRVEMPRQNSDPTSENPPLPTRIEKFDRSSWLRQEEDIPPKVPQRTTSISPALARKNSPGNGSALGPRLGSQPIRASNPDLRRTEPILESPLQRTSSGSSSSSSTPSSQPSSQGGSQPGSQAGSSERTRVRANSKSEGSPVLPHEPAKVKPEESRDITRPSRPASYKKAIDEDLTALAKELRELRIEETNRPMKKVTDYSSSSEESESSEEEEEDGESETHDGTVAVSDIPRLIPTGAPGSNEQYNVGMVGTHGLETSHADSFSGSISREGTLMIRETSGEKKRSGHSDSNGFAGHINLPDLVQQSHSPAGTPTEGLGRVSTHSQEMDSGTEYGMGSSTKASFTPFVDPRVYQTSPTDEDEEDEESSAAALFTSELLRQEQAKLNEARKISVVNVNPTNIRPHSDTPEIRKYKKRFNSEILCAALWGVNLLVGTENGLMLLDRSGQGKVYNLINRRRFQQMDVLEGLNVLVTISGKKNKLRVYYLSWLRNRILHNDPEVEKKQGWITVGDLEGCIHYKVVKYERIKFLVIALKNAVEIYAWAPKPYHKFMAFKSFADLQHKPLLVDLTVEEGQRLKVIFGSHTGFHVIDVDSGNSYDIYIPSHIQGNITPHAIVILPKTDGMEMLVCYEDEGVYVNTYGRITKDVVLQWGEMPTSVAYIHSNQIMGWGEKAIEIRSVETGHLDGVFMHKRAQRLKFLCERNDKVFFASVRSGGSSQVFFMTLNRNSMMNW
UniProt Q9UKI8, sequence (whole entry, looked up): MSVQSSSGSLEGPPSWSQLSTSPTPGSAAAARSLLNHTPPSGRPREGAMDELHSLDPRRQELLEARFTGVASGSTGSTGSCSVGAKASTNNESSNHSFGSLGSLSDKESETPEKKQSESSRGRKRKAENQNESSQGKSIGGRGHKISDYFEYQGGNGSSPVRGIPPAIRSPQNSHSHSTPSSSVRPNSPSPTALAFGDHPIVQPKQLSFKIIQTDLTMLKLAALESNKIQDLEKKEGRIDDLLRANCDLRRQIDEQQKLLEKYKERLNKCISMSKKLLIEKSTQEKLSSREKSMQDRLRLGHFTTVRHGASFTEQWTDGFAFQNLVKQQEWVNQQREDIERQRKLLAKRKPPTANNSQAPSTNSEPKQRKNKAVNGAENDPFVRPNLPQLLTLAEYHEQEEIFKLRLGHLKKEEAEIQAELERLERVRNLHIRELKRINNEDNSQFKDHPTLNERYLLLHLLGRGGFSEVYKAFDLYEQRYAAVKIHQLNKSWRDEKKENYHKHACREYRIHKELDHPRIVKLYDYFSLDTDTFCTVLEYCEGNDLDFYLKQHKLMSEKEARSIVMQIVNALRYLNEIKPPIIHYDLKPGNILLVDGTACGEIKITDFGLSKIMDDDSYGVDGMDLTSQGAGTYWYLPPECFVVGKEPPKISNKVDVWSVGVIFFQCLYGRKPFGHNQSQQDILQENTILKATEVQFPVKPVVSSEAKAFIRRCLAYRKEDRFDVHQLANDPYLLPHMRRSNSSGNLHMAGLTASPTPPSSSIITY
UniProt O75914, sequence (whole entry, looked up): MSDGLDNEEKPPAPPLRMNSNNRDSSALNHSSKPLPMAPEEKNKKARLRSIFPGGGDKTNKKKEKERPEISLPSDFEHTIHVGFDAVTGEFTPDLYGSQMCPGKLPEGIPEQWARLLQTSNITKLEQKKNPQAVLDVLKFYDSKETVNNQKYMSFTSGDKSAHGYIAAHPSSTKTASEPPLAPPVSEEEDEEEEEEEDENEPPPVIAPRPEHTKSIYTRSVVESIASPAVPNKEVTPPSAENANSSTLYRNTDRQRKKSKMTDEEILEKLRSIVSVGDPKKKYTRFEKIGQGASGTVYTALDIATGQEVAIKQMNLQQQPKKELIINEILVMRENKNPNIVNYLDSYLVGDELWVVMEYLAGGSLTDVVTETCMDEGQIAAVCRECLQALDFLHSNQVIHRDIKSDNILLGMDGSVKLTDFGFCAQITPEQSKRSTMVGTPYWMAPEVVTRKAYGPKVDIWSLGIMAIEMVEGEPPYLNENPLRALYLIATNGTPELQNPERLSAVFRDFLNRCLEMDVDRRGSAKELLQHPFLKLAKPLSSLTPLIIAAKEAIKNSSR

Sample 1
SMILES: CCS(=O)(=O)c1cc2cc(C[C@@](O)(CC(C)(C)c3ccc(F)cc3C(N)=O)C(F)(F)F)[nH]c2cn1
Technique: competition with immobilised ligand
Tested at: 1 µM
target | assay | remaining binding
PIP4K2B (Homo sapiens, UniProt P78356) | cell-free assay | 85%
EGFR (Homo sapiens, UniProt P00533, G719S) | cell-free assay | 100%
TLK1 (Homo sapiens, UniProt Q9UKI8) | cell-free assay | 0%
Tyrosine-protein kinase ABL1, non-phosphorylated (ABL1, Homo sapiens, UniProt P00519, Q252H) | cell-free assay | 79%
Mast/stem cell growth factor receptor Kit, autoinhibited (KIT, Homo sapiens, UniProt P10721) | cell-free assay | 100%
PDPK1 (Homo sapiens, UniProt O15530) | cell-free assay | 100%
Tyrosine-protein kinase ABL1, non-phosphorylated (ABL1, Homo sapiens, UniProt P00519, F317I) | binding | 78%
MAPK3 (Homo sapiens, UniProt P27361) | cell-free assay | 98%
MAP3K10 (Homo sapiens, UniProt Q02779) | cell-free assay | 65%
STK17A (Homo sapiens, UniProt Q9UEE5) | cell-free assay | 80%
MAST1 (Homo sapiens, UniProt Q9Y2H9) | cell-free assay | 100%
WEE2 (Homo sapiens, UniProt P0C1S8) | cell-free assay | 95%
ERBB2 (Homo sapiens, UniProt P04626) | cell-free assay | 100%
TNIK (Homo sapiens, UniProt Q9UKE5) | cell-free assay | 97%
PIM1 (Homo sapiens, UniProt P11309) | cell-free assay | 97%
RET (Homo sapiens, UniProt P07949, V804L) | cell-free assay | 96%
FGR (Homo sapiens, UniProt P09769) | cell-free assay | 88%
PRKACB (Homo sapiens, UniProt P22694) | cell-free assay | 99%
PAK3 (Homo sapiens, UniProt O75914) | cell-free assay | 100%
CDKL1 (Homo sapiens, UniProt Q00532) | cell-free assay | 78%
STK32C (Homo sapiens, UniProt Q86UX6) | cell-free assay | 90%
NEK11 (Homo sapiens, UniProt Q8NG66) | cell-free assay | 100%
EGFR (Homo sapiens, UniProt P00533) | cell-free assay | 96%
EPHA3 (Homo sapiens, UniProt P29320) | cell-free assay | 85%

Sample 2
Species: mouse
Sample: microsomes or S9
Tested at: 2 µM
Time: 0.5 h
Structure (SMILES) | remaining compound [%]
Cc1cc(C)c(C(=O)c2ccc(C(=O)NC(C)(C)C)cc2)c(C)c1 | 0.601
CC(O)c1ccc(-c2ccc(CNn3nnnc3N)o2)cc1 (centres unmarked) | > 99.9
CC(C)c1nnc(-c2cccnc2N2CCN(C(=O)C3COc4ccccc4O3)CC2)o1 (centres unmarked) | 0.919
COc1cc(=O)[nH]cc1C(=O)N[C@@H]1CCO[C@H]1c1ccc(Cl)cc1 | 51.9
COc1ccc(Cl)cc1NC(=O)c1cc2c(=O)oc3ccccc3c2n1C | 36.8

Sample 3
Target: panel of 300 human kinases
Tested at: 0.5 µM
Direction: higher = more selective
Compound | Gini score
O=C(NC(NC(=S)Nc1ccc(F)c([N+](=O)[O-])c1)C(Cl)(Cl)Cl)C(c1ccccc1)c1ccccc1 (centres unmarked) | 0.75
CCN(CC)C(=O)c1ccc(Nc2nc(OCC3CCCCC3)c3[nH]cnc3n2)cc1 | 0.56
N#CC(=C(N)Sc1ccc(N)cc1)c1ccccc1C(F)(F)F | 0.74
Cn1nc2c3c(cccc31)C(=O)c1ccccc1-2 | 0.63
CN(C)C[C@H]1CCn2c(c(C3=C(c4cn(C)c5ccccc45)C(=O)NC3=O)c3ccccc32)C1 | 0.76
COc1cc(OC)c(C=C2C(O)=Nc3ccccc32)c(OC)c1 | 0.66
CC(=O)c1ccc(N2CCOCC2)cc1O | 0.73

Sample 4
Cell line: mouse MPNST tumor cells
Technique: high-content nuclear imaging
Measured: cell number
Tested at: 10 µM
Time: 12 h
Setting: mean of 2 replicates
Reference: plate mean
Direction: higher = more cells
SMILES | nuclei count
O=C(O)c1ccc(S(=O)(=O)NC2CCCCC2)cc1 | 0.0725 z-score
Cc1cc(=O)n(-c2ccccc2)n1C | 2.72 z-score
CCCCOC(=O)c1ccc(O)cc1 | 2.29 z-score
CC(C)[C@H](CO)Nc1nc(Nc2cc(N)cc(Cl)c2)c2ncn(C(C)C)c2n1 | -1.89 z-score
Cc1nn(C)c2nc(NNC(=O)Nc3cc(Cl)nc(Cl)c3)cc(C(C)C)c12 | 2.37 z-score

Sample 5
Cell line: A-375
Tested at: 100 µM
Time: 18 h
SMILES | viability [%]
Cc1c(NC(=O)c2cccnc2)c(=O)n(-c2ccccc2)n1C | 78.9
Nc1ccc(C(=O)O)c(O)c1 | 118
CC(NCCC(c1ccccc1)c1ccccc1)c1ccccc1 (centres unmarked) | 8.3
COc1c2occc2cc2ccc(=O)oc12 | 97.7
CCN(CC)CCCC(C)Nc1c2ccc(Cl)cc2nc2ccc(OC)cc12 (centres unmarked) | 12.1

Sample 6
Technique: PRP chromatography estimate
Sample: 1,9-decadiene/PBS
pH: 7.4
SMILES | logD
CC(C)C[C@@H]1NC(=O)[C@H](CC(C)C)NC(=O)[C@@H](CC(C)C)NC(=O)[C@H](C(C)C)NC(=O)[C@@H](CCC(=O)N2CCCC2)NC(=O)[C@H](C)NC(=O)[C@H](C)NC1=O | -2.54
CC(C)C[C@@H]1NC(=O)[C@@H](C)NC(=O)[C@H](Cc2cscn2)NC(=O)[C@@H](C(C)C)NC(=O)[C@H](C(C)C)NC(=O)[C@H](CC(C)C)NC(=O)[C@@H](CC(C)C)NC1=O | -0.834
CC(C)C[C@@H]1NC(=O)[C@H](C)NC(=O)[C@@H](CC(C)C)NC(=O)[C@H](C)NC(=O)[C@H](C)NC(=O)[C@H](CC(C)C)NC(=O)[C@@H](CC(C)C)NC1=O | -1.89
CC(C)C[C@@H]1NC(=O)[C@H](CC(C)C)NC(=O)[C@@H](CC(C)C)NC(=O)[C@@H](C(C)C)NC(=O)[C@H](C)NC(=O)[C@H](CC(C)C)NC(=O)[C@@H](CC(C)C)NC1=O | 1.37
CC(C)C[C@@H]1NC(=O)[C@H](CC(C)C)NC(=O)[C@@H](CC(C)C)NC(=O)[C@H](C(C)C)NC(=O)[C@@H](Cc2cscn2)NC(=O)[C@H](Cc2cscn2)NC(=O)[C@H](CCC(=O)N2CCCC2)NC1=O | -1.19
CC(C)C[C@@H]1NC(=O)[C@H](C(C)C)NC(=O)[C@@H](CC(C)C)NC(=O)[C@@H](CC(C)C)NC(=O)[C@@H](CCC(=O)N2CCCC2)NC(=O)[C@H](CC(C)C)NC(=O)[C@@H](CC(C)C)NC1=O | 0.581
CC(C)C[C@@H]1NC(=O)[C@H](Cc2cscn2)NC(=O)[C@H](Cc2cscn2)NC(=O)[C@H](CC(C)C)NC(=O)[C@@H](CCC(=O)N2CCCC2)NC(=O)[C@H](CC(C)C)NC(=O)[C@@H](CC(C)C)NC1=O | -0.869

For quick reference, copied from above (sample 1):
target | assay | remaining binding
TNIK (Homo sapiens, UniProt Q9UKE5) | cell-free assay | 97%
PIM1 (Homo sapiens, UniProt P11309) | cell-free assay | 97%
RET (Homo sapiens, UniProt P07949, V804L) | cell-free assay | 96%
FGR (Homo sapiens, UniProt P09769) | cell-free assay | 88%
PRKACB (Homo sapiens, UniProt P22694) | cell-free assay | 99%
